Literature values that unrelated publications cite.
Protocols differ between the studies behind these lines. Numbers after ± are the reported error.
Sequence of UniProt P14416 (whole entry, looked up): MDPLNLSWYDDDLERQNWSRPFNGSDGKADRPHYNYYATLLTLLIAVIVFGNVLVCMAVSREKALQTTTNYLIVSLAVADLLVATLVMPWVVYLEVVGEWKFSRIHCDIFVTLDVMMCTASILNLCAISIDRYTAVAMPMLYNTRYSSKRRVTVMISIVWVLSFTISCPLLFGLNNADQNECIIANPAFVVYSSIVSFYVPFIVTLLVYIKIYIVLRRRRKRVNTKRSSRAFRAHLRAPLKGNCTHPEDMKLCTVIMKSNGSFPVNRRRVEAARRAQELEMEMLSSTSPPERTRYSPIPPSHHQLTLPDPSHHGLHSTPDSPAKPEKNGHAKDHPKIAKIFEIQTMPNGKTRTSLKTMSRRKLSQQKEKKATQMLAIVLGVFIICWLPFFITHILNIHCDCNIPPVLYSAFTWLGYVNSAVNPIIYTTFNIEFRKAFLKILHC
Sequence of UniProt Q13336 (whole entry, looked up): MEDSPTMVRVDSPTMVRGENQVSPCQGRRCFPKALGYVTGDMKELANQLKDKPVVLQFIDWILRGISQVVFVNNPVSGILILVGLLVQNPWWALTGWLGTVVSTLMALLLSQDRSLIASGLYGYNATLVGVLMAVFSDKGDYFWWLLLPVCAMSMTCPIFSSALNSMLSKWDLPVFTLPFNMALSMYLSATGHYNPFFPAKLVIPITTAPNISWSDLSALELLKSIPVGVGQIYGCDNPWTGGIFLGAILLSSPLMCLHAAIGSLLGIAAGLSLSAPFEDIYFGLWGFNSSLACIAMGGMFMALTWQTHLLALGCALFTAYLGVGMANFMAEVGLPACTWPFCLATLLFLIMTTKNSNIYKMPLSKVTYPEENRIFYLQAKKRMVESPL
Sequence of UniProt P16257 (whole entry, looked up): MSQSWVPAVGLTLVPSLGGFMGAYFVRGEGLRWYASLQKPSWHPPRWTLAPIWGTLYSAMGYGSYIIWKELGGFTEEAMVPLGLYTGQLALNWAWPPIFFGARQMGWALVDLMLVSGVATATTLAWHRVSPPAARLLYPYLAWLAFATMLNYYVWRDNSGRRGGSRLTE
Sequence of UniProt Q9Y6L6 (whole entry, looked up): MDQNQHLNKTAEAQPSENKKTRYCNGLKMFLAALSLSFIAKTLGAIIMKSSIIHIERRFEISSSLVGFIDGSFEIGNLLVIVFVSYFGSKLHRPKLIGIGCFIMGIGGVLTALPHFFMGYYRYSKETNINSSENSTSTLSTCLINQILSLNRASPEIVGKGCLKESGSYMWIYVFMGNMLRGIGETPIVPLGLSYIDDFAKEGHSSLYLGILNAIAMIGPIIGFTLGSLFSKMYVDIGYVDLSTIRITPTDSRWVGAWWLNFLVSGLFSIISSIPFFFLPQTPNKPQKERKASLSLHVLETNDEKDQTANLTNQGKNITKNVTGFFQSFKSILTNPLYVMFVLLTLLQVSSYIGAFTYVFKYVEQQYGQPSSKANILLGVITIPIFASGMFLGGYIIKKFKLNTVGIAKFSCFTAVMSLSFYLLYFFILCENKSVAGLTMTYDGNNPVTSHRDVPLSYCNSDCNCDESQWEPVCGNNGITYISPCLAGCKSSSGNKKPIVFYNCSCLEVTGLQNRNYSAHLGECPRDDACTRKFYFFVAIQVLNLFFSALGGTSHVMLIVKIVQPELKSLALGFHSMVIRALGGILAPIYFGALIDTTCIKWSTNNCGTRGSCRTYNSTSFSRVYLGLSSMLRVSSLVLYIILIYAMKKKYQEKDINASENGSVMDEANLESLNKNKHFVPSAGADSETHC
Sequence of UniProt P35462 (whole entry, looked up): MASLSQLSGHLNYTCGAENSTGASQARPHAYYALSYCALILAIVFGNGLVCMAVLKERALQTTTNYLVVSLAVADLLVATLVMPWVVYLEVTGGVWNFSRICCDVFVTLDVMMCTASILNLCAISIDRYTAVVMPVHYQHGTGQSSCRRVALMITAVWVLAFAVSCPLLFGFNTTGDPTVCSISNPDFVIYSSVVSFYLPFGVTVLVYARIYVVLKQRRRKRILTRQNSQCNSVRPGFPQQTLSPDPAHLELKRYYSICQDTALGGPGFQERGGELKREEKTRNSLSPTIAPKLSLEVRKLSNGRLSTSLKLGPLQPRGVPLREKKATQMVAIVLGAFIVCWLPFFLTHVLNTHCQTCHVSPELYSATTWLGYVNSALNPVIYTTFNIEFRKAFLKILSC
Sequence of UniProt Q9H0K1 (whole entry, looked up): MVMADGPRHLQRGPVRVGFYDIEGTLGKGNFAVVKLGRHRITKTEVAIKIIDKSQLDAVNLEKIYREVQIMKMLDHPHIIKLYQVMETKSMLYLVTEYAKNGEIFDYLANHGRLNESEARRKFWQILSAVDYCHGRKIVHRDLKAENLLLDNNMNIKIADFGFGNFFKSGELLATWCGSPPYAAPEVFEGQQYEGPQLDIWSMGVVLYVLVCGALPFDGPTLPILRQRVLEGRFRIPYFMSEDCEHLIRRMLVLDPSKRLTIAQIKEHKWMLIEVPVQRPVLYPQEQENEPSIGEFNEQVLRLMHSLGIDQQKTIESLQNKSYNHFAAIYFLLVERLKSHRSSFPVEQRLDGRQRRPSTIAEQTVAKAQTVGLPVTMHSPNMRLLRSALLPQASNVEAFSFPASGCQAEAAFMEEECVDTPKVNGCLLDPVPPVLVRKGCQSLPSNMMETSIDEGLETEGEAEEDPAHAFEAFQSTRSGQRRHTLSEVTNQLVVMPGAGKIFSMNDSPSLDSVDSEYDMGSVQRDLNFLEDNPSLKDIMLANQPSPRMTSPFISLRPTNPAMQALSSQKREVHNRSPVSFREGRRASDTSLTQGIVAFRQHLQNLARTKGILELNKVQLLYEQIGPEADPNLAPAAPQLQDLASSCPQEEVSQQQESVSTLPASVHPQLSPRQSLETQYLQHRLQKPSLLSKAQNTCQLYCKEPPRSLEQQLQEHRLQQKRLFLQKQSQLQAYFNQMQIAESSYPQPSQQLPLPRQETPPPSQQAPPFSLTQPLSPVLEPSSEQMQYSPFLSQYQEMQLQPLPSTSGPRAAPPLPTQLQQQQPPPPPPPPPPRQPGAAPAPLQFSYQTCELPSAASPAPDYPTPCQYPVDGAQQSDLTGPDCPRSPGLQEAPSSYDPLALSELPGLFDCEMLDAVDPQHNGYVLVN
Sequence of UniProt P28335 (whole entry, looked up): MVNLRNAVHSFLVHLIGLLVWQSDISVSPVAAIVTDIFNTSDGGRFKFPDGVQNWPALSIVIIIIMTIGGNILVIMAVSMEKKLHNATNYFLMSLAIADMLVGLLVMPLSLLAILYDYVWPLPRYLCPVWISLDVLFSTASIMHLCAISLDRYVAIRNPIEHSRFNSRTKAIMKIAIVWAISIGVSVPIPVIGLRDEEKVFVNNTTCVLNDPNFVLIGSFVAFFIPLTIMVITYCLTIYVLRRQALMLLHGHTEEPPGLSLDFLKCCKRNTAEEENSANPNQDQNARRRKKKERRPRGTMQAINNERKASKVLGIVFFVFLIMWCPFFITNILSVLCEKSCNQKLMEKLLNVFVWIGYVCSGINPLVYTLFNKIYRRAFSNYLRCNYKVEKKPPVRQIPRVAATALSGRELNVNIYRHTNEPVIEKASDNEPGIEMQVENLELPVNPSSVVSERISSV

SMILES | tested on | test | system | setting | scale | endpoint | value
O=C(O)C1=CCCN(CCON=C(c2ccccc2)c2ccccc2)C1 | Slc6a1 (Rattus norvegicus, UniProt P23978) | binding |  |  |  | Ki | 0.2 µM
CO[C@H]1/C=C/O[C@@]2(C)Oc3c(C)c(O)c4c(O)c(c(/C=N/N5CCN(C)CC5)c(O)c4c3C2=O)NC(=O)/C(C)=C\C=C\[C@H](C)[C@H](O)[C@@H](C)[C@@H](O)[C@@H](C)[C@H](OC(C)=O)[C@@H]1C | SLCO1B1 (Homo sapiens, UniProt Q9Y6L6) | inhibitor |  |  |  | Ki | 0.3 to 4.4 µM
CNC(=O)[C@@]12C[C@@H]1[C@@H](n1cnc3c(NC)nc(C#Cc4ccc(F)c(F)c4)nc31)[C@H](O)[C@@H]2O | beta-3 adrenergic receptor | radioligand binding |  |  |  | Ki | 2.14 µM
O=C1N[C@H](c2cncc(C#Cc3ccccc3)c2)[C@@H](c2ccccc2Cl)O1 | mGluR5 | binding, radioligand displacement |  |  |  | Ki | 0.0006 µM
CCC(=O)NCC[C@@H]1CCc2ccc3c(c21)CCO3 | melatonin receptor |  | chick forebrain |  |  | Ki | 2.31e-05 µM
COc1cc2c(cc1O)[C@@H]1Cc3ccc(O)c(OC)c3CN1CC2 | DRD3 (Homo sapiens, UniProt P35462) | binding |  |  |  | Ki | 0.03 µM
Nc1ccc(Br)cc1S(=O)(=O)C[C@H](N)C(=O)O | kynureninase (Pseudomonas fluorescens) | inhibitor |  |  |  | Ki | 0.4 µM
Nc1cc(C(F)(F)F)c(-c2nc(N3CCOCC3)nc(N3CCOCC3)n2)cn1 | SIK2 (Homo sapiens, UniProt Q9H0K1) | enzyme activity |  | 10 µM | relative to: untreated | remaining activity | 97%
O=c1cnn([C@@H]2O[C@H](CO)[C@@H](O)[C@H]2O)c(=S)[nH]1 | cytidine deaminase (human) | competitive inhibitor |  | concentration not given |  | Ki | 290 µM
NC(N)=O | Urea transporter 1 (Homo sapiens, UniProt Q13336) | thiourea exchange |  | 0 °C |  | Ki | 100000 µM
CNC(=O)[C@@]12C[C@@H]1[C@@H](n1cnc3c(NCc4cccc(Cl)c4)nc(C#Cc4ccc(F)c(F)c4)nc31)[C@H](O)[C@@H]2O | Tspo (Rattus norvegicus, UniProt P16257) | radioligand binding |  |  |  | Ki | < 1 µM
Nc1ncnc2c1ncn2[C@@H]1O[C@H](COP(=O)(O)CP(=O)(O)OP(=O)(O)O)[C@@H](O)[C@H]1O | P2X receptor | radioligand binding |  |  |  | Ki | 0.018 µM
C=CCc1ccc(O)c(OC)c1 | CA2 (Homo sapiens, UniProt P00918) |  |  |  |  | Ki | 0.531 µM
O=c1ncc(F)cn1[C@@H]1O[C@H](CO)[C@@H](O)[C@H]1O | cytidine deaminase (human) | competitive inhibitor |  | concentration not given |  | Ki | 0.3 µM
CC1(C)S[C@@H]2[C@H](NC(=O)[C@H](N)c3ccccc3)C(=O)N2[C@H]1C(=O)O | Escherichia coli |  | clinical isolate RKI-No_521/16 |  |  | MIC | > 16 µg/mL
OC[C@H]1O[C@@H](n2ccc3c(SCc4ccc(Cl)c(Cl)c4)ncnc32)[C@H](O)[C@@H]1O | adenosine kinase (Toxoplasma gondii) | binding |  |  |  | Ki | 28 ± 11 µM
CNC(C)C1CCC(N)C(OC2C(N)CC(N)C(OC3OCC(C)(O)C(NC)C3O)C2O)O1 (stereo not drawn) | Escherichia coli |  | clinical isolate RKI-No_590/16 |  |  | MIC | > 8 µg/mL
CCc1cc(Cl)c(OC)c(N2CCN(C[C@H](O)CCNC(=O)c3cc4ccccc4[nH]3)CC2)c1 | DRD2 (Homo sapiens, UniProt P14416) | binding |  |  |  | Ki | 11.4 µM
O=c1[nH]c(=O)n([C@@H]2O[C@H](CO)[C@@H](O)[C@H]2O)cc1F | cytidine deaminase (human) | competitive inhibitor |  | concentration not given |  | Ki | 430 µM
O=C1c2ccccc2-c2n[nH]c3cccc1c23 | JNK | ATP-competitive inhibitor |  |  |  | Ki | 0.19 µM
O=C1C=CN([C@@H]2O[C@H](CO)[C@@H](O)[C@H]2O)C(=O)C1 | cytidine deaminase (human) | competitive inhibitor |  | concentration not given |  | Ki | 110 µM
CN(C)Cc1ccc(-c2nc3cccc4c3n2CCNC4=O)cc1 | PARP1 (Homo sapiens, UniProt P09874) | inhibitor |  |  |  | Ki | < 0.005 µM
O=C(O)/C(=C/c1c(C(=O)O)[nH]c2cc(Cl)cc(Cl)c12)c1ccccc1 | Grin1 (Rattus norvegicus, UniProt P35439) | binding |  | historical reference data |  | Ki | 0.021 µM
OC[C@@]12C[C@@H]1[C@@H](n1cnc3c(NC(C4CCC4)C4CCC4)nc(I)nc31)[C@H](O)[C@@H]2O | HTR2C (Homo sapiens, UniProt P28335) | binding |  | together with: [3H]mesulergine |  | Ki | 0.719 µM

Some of these lines once more:
SMILES | tested on | test | system | setting | scale | endpoint | value
O=C(O)C1=CCCN(CCON=C(c2ccccc2)c2ccccc2)C1 | Slc6a1 (Rattus norvegicus, UniProt P23978) | binding |  |  |  | Ki | 0.2 µM
CO[C@H]1/C=C/O[C@@]2(C)Oc3c(C)c(O)c4c(O)c(c(/C=N/N5CCN(C)CC5)c(O)c4c3C2=O)NC(=O)/C(C)=C\C=C\[C@H](C)[C@H](O)[C@@H](C)[C@@H](O)[C@@H](C)[C@H](OC(C)=O)[C@@H]1C | SLCO1B1 (Homo sapiens, UniProt Q9Y6L6) | inhibitor |  |  |  | Ki | 0.3 to 4.4 µM
CNC(=O)[C@@]12C[C@@H]1[C@@H](n1cnc3c(NC)nc(C#Cc4ccc(F)c(F)c4)nc31)[C@H](O)[C@@H]2O | beta-3 adrenergic receptor | radioligand binding |  |  |  | Ki | 2.14 µM
